Assay results of several laboratories.
Every numbered part comes from another study and shows a few of its results, in no order.
UniProt P48736, sequence (whole entry, looked up): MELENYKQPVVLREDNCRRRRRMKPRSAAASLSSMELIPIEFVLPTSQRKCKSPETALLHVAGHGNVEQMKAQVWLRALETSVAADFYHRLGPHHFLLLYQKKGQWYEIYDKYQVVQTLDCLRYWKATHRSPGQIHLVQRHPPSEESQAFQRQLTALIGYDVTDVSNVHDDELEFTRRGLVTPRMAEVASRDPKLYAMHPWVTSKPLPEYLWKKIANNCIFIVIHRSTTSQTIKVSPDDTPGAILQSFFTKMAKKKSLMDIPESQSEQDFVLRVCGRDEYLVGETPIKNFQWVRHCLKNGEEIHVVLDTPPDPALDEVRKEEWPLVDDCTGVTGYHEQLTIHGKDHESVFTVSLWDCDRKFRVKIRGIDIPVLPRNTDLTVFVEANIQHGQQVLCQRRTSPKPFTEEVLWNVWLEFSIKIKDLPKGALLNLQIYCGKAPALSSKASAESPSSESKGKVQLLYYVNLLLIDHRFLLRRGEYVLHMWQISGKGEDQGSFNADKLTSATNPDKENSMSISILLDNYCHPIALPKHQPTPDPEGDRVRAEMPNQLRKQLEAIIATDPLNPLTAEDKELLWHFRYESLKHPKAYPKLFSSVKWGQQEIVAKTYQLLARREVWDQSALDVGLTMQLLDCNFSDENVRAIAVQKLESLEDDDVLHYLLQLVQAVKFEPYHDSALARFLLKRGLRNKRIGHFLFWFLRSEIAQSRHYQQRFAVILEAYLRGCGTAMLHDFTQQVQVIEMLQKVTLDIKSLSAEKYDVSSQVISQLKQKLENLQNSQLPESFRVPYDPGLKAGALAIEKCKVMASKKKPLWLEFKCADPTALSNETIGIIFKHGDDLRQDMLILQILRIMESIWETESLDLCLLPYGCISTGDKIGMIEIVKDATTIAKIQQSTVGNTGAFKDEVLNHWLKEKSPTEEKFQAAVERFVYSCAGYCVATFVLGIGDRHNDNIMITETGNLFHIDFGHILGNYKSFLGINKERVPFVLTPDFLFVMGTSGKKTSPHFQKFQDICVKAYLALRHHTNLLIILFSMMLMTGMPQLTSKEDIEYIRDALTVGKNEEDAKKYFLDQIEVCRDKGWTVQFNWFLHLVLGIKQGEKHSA
UniProt Q05513, sequence (whole entry, looked up): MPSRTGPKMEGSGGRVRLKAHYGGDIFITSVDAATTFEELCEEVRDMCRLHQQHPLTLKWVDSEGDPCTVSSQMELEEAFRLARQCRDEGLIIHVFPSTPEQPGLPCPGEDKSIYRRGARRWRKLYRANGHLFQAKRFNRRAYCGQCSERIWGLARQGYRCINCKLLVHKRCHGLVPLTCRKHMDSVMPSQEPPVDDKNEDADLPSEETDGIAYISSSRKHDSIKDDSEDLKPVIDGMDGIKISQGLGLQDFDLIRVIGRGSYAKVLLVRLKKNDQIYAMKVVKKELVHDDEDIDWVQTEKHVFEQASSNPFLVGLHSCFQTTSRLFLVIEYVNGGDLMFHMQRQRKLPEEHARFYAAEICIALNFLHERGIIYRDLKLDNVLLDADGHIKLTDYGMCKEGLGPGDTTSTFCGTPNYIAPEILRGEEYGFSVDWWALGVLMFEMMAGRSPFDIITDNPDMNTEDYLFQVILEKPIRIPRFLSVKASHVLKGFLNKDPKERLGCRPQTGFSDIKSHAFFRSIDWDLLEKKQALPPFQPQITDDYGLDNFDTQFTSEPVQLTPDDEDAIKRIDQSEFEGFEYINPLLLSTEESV
UniProt Q14012, sequence (whole entry, looked up): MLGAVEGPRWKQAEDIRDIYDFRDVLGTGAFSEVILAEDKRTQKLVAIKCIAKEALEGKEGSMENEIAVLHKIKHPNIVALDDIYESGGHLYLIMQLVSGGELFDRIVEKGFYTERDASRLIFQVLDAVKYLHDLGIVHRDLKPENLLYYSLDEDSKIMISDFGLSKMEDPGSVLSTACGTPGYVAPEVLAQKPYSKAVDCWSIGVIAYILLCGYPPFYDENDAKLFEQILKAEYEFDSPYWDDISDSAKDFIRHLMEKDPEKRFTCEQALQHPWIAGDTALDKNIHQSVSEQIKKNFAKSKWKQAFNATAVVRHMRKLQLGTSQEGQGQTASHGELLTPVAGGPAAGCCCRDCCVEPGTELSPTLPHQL
UniProt P08069, sequence (whole entry, looked up): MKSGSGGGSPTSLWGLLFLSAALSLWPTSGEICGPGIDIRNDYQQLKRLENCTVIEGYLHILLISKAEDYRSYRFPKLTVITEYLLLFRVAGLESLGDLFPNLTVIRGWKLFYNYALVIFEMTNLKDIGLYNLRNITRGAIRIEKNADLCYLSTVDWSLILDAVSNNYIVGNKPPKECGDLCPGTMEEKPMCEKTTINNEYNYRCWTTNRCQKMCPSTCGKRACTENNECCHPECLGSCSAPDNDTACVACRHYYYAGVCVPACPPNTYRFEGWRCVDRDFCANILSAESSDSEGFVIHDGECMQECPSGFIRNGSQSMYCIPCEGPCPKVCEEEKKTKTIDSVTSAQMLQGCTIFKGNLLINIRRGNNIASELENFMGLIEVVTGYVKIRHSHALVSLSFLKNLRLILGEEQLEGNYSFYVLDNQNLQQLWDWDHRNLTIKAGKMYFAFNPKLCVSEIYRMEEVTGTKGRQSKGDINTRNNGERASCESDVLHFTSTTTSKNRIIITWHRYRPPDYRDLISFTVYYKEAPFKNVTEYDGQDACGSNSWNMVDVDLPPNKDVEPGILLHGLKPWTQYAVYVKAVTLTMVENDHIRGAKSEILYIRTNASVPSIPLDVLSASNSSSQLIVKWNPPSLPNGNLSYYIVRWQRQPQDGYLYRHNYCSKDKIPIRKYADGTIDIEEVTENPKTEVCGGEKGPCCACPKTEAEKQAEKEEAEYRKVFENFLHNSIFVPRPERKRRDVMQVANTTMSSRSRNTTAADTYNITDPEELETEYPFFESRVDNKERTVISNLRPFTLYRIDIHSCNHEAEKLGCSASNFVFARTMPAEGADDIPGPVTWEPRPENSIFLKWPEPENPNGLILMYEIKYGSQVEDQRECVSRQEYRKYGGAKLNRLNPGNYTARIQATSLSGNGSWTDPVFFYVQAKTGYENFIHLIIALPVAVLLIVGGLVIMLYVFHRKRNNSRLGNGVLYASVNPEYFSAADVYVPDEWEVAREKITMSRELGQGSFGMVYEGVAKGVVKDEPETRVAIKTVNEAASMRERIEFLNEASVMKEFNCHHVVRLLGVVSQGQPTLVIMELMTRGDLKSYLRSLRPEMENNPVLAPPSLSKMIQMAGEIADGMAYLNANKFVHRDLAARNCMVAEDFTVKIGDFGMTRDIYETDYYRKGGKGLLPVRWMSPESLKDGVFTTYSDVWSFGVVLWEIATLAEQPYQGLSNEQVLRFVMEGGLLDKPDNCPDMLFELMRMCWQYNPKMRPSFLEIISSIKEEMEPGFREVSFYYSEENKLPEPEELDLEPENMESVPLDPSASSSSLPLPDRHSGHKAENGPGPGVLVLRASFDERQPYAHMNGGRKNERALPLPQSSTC
UniProt Q8N4C8, sequence (whole entry, looked up): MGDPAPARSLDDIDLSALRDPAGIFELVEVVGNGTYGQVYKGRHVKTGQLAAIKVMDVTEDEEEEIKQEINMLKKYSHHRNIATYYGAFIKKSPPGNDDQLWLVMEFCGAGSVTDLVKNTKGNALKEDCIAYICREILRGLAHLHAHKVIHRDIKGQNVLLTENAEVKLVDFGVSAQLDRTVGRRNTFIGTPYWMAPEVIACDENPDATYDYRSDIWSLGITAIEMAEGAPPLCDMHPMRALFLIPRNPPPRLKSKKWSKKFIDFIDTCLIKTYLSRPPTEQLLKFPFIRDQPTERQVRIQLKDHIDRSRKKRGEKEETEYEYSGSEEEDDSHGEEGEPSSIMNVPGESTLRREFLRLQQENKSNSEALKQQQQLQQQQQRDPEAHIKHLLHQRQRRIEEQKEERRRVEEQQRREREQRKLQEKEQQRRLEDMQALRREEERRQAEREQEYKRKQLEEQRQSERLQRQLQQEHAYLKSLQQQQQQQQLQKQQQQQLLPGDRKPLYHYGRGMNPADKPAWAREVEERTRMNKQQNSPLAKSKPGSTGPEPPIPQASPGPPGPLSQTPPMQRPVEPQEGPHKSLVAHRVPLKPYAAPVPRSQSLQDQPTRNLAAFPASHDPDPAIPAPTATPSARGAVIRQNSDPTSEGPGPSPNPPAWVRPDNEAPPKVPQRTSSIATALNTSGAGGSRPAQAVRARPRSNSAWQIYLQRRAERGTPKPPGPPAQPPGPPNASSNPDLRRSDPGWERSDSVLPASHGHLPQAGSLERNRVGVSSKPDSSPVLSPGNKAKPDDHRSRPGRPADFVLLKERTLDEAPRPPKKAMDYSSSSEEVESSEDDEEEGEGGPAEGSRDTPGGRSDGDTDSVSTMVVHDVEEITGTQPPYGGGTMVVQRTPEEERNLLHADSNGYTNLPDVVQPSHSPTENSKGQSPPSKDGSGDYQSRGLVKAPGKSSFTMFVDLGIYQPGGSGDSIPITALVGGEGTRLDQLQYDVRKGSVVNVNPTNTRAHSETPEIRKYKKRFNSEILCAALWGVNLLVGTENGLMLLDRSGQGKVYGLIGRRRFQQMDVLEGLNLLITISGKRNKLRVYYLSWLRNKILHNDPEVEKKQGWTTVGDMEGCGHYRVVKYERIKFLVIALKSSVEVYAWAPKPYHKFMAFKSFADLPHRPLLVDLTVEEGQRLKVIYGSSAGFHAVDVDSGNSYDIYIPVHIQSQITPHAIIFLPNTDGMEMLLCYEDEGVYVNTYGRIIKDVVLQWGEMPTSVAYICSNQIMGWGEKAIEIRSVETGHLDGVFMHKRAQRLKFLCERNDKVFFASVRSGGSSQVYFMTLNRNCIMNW

Series 1
SMILES: CCN(CC)CCNC(=O)c1c(C)[nH]c(/C=C2\C(=O)Nc3ccc(F)cc32)c1C
Observed: enzyme activity
Mode: inhibitor
Concentration: 0.5 µM
Reference: control
target	remaining activity [%]
Calcium/calmodulin-dependent protein kinase type 1 (CAMK1, Homo sapiens, UniProt Q14012)	75.2
Calcium/calmodulin-dependent protein kinase kinase 1 (CAMKK1, Homo sapiens, UniProt Q8N5S9)	52.1
Ephrin type-A receptor 6 (EPHA6, Homo sapiens, UniProt Q9UF33)	29.5
Ephrin type-A receptor 2 (EPHA2, Homo sapiens, UniProt P29317)	83.6
Serine/threonine-protein kinase PAK 1 (PAK1, Homo sapiens, UniProt Q13153)	118
Casein kinase I isoform delta (CSNK1D, Homo sapiens, UniProt P48730)	31.8
Serine/threonine-protein kinase PAK 6 (PAK6, Homo sapiens, UniProt Q9NQU5)	107
Insulin-like growth factor 1 receptor (IGF1R, Homo sapiens, UniProt P08069)	62.6
Protein kinase C zeta type (PRKCZ, Homo sapiens, UniProt Q05513)	91.7
Dual specificity protein kinase CLK2 (CLK2, Homo sapiens, UniProt P49760)	13.6

Series 2
SMILES: O=C1CCc2cc(Nc3cc(OC4CCOCC4)c([N+](=O)[O-])cc3Cl)ccc2N1
Observed: cell-free assay
Method: competition with immobilised ligand
Concentration: 1 µM
target	remaining binding [%]
5'-AMP-activated protein kinase catalytic subunit alpha-2 (PRKAA2, Homo sapiens, UniProt P54646)	100
Proto-oncogene tyrosine-protein kinase ROS (ROS1, Homo sapiens, UniProt P08922)	100
Serine/threonine-protein kinase 25 (STK25, Homo sapiens, UniProt O00506)	100
Cyclin-dependent kinase 8 (CDK8, Homo sapiens, UniProt P49336)	100
Misshapen-like kinase 1 (MINK1, Homo sapiens, UniProt Q8N4C8)	83
Myosin-IIIa (MYO3A, Homo sapiens, UniProt Q8NEV4)	99
Phosphatidylinositol 4,5-bisphosphate 3-kinase catalytic subunit gamma isoform (PIK3CG, Homo sapiens, UniProt P48736)	75
Serine/threonine-protein kinase WNK2 (WNK2, Homo sapiens, UniProt Q9Y3S1)	100
Mitogen-activated protein kinase 15 (MAPK15, Homo sapiens, UniProt Q8TD08)	96
Serine/threonine-protein kinase 26 (STK26, Homo sapiens, UniProt Q9P289)	87
Receptor tyrosine-protein kinase erbB-2 (ERBB2, Homo sapiens, UniProt P04626)	100
Ribosomal protein S6 kinase beta-1 (RPS6KB1, Homo sapiens, UniProt P23443)	100
Serine/threonine-protein kinase MARK2 (MARK2, Homo sapiens, UniProt Q7KZI7)	71
Protein kinase C eta type (PRKCH, Homo sapiens, UniProt P24723)	86
Peripheral plasma membrane protein CASK (CASK, Homo sapiens, UniProt O14936)	100

Series 3
Cell line: A-375
Concentration: 100 µM
Time: 36 h
Structure (SMILES)	viability [%]
CC1(C)S[C@@H]2[C@H](NC(=O)C(C(=O)O)c3ccccc3)C(=O)N2[C@H]1C(=O)O (stereo partly shown)	93
CO[C@H]1C[C@@H]2CC[C@@H](C)[C@@](O)(O2)C(=O)C(=O)N2CCCC[C@H]2C(=O)O[C@H]([C@H](C)C[C@@H]2CC[C@@H](O)[C@H](OC)C2)CC(=O)[C@H](C)/C=C(\C)[C@@H](O)[C@@H](OC)C(=O)[C@H](C)C[C@H](C)/C=C/C=C/C=C/1C	20.2
CCCCC(=O)O[C@]1(C(=O)CO)[C@@H](C)C[C@H]2[C@@H]3CCC4=CC(=O)C=C[C@]4(C)[C@@]3(F)[C@@H](O)C[C@@]21C	-1.18
N[C@@H](Cc1cc(I)c(Oc2ccc(O)c(I)c2)c(I)c1)C(=O)O	90.8
COc1c2occc2c(OC)c2c(=O)cc(C)oc12	80.9

Further values, each from its own experiment
Structure (SMILES)	medium	quantity	value
CCC[C@@H]1NC(=O)CSC[C@@H](C(=O)OCC)N(C)C(=O)[C@H](CC(C)C)NC(=O)[C@@H](C)N(C)C(=O)[C@@H](CC(C)C)NC(=O)[C@H](C)N(C)C(=O)[C@H]2CCCN2C(=O)[C@@H](CC(C)C)NC(=O)CN(C)C1=O	hydrocarbon/water	logD	0.302

For quick reference, copied from above (series 3):
Structure (SMILES)	viability [%]
CCCCC(=O)O[C@]1(C(=O)CO)[C@@H](C)C[C@H]2[C@@H]3CCC4=CC(=O)C=C[C@]4(C)[C@@]3(F)[C@@H](O)C[C@@]21C	-1.18
N[C@@H](Cc1cc(I)c(Oc2ccc(O)c(I)c2)c(I)c1)C(=O)O	90.8
